Measured values pooled from the literature.
Every numbered part comes from another study and shows a few of its results, in no order.

Sample 1 — technique: aptamer microarray, sandwich; form: DNA with 2'F-ANA; medium: in vitro; tested at: 200 nM; together with: Cy3 exosite-II aptamer, 400 nM; direction: higher = stronger binding; strand: GGTTGGTGTGGTTGG
Target: Prothrombin, mature alpha-thrombin (F2, Homo sapiens, UniProt P00734)
Notes: whole 15-mer aptamer, many near background
Modification	mean fluorescence intensity [a.u.]
2'F-ANA at 1 5 9 11 12 13 14	45.8
2'F-ANA at 4 11 12 15	359
2'F-ANA at 1 2 3 4 5 7 9 11 14 15	73.9
2'F-ANA at 3 4 6 7 9 11 12 15	630
2'F-ANA at 1 3 5 6 7 9 10 11 12 13 15	52.9
2'F-ANA at 1 2 3 6 8 9 10 12 14	56.2
2'F-ANA at 3 4 8	894
2'F-ANA at 1 3 7 9 10 12 13 14	61.8
2'F-ANA at 1 2 4 5 6 7 8 9 10 15	49.6
2'F-ANA at 1 2 6 7 8 10 11 12 13 15	63.1
2'F-ANA at 3 7 9 14 15	553
2'F-ANA at 1 3 4 5 9 10 11	72.5
2'F-ANA at 1 2 6 7 8 11	217
2'F-ANA at 1 2 4 8 9 10 12 13 14 15	49.3
2'F-ANA at 2 6 7 8 10 14 15	86.1
2'F-ANA at 1 2 4 6 7 13 15	76.5
2'F-ANA at 2 4 6 9 12 14 15	95.1
2'F-ANA at 2 3 4 6 8 9 11	500
2'F-ANA at 2 5 7 9 11 12 14	49.3
2'F-ANA at 3 5 7 8 12 15	289
2'F-ANA at 3 6 8 10 11 12 15	400
2'F-ANA at 1 6 7 9 11 12 13 14	69.2
2'F-ANA at 2 3 5 10 11 15	53.3
2'F-ANA at 4 5 6 7 8 9 12 14	50.1
2'F-ANA at 1 2 3 6 10 11 13	120

Sample 2 — technique: protein-binding microarray; form: double-stranded DNA, one strand shown; medium: in vitro; tested at: 2200 nM top; notes: 60-bp whole probe; together with: salmon DNA 0.4 mg/ml; relative to: random background probes; direction: higher = stronger binding; all sequences stand within: GCCTAGCAC … GTCTTGATTCGCTTGACGCTGCTG
Target: Interferon regulatory factor 7, full length, phosphomimetic (IRF7, Homo sapiens, UniProt Q92985, residues 1-503, S471D/S472D/S475D/S476D/S477D/S483D/S484D/S487D)
UniProt Q92985, sequence (whole entry, unmodified, looked up): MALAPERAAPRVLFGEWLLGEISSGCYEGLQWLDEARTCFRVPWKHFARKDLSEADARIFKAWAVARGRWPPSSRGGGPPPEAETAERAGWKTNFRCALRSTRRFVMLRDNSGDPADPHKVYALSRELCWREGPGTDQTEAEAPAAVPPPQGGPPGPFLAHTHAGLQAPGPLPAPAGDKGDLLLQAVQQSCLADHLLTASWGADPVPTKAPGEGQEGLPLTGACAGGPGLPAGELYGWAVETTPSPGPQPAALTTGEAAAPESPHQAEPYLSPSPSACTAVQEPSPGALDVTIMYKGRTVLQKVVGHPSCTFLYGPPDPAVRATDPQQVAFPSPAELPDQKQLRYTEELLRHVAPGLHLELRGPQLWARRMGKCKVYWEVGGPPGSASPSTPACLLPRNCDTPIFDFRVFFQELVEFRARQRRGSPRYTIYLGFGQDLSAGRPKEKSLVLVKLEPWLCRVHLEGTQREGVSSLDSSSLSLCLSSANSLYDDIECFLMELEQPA
Strand	fitted relative affinity
TTAGGACTGCTACTGCTTTAGTGCTAG	-0.157 z-score
GGAGTTTTCTCATTCGTCATGTGCTAG	2.19 z-score
GACGCTTTCAGACTGGAGACGTGCTAG	1.21 z-score
TTAGAACTGGACACTGGGTTAGTGCTA	-0.696 z-score
CTTTCTTTATGTACTCTCTCCGTGCTA	2.62 z-score
TCAGGTCTCGGTTTCGGTTAGTGCTAG	7.12 z-score
GACGGACTGGGGTTTCGAGACGTGCTA	0.495 z-score
TTAGGTTTTCTTCTCCTTTAGTGCTAG	1.62 z-score
GACGAGATCAGTCTCGAGACGTGCTAG	0.227 z-score
TTACATATCGGGTTTCGATTAGTGCTA	3.89 z-score
GACGATTTCAGACTGGAGAAGTGCTAG	0.0751 z-score
GGGTCTCTGGGTCGGGCAGGGTGCTAG	-0.54 z-score
GACGGTTTCGGGGCTGGGGACGTGCTA	2.62 z-score
GACGAACTGATTCTCGAGACGTGCTAG	0.26 z-score
GACGAGATCGGGTATCGAGACGTGCTA	0.0456 z-score
GACGGACTGGACTTTCGGGCCGTGCTA	1.02 z-score

Sample 3 — technique: protein binding microarray; form: double-stranded DNA, one strand shown; medium: in vitro; tested at: not given; relative to: not given; direction: higher = stronger binding
Target: Histone acetyltransferase KAT6A, winged helix 2, GST fusion (KAT6A, Homo sapiens, UniProt Q92794, residues 85-181)
Notes: 8-mer, flanks averaged, mean of 2 arrays, mostly near background
Residues (chain): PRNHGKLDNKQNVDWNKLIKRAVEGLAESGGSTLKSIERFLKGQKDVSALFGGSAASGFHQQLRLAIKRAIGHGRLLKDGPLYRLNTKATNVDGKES
Strand	E-score
TCTACCCA	-0.0527
GTGCATCA	0.0812
GGTGAAGA	0.0769
GGGTTACA	0.00126
GCATCGCC	0.215
CCGGCCGA	0.201
CTCTGTCC	0.0782
GGGAGCCA	0.0413
ATAGATAA	-0.0108
CGAGAAGC	-0.0112
ATAATGAA	0.165
GAACCACA	0.142
GCTTTTCA	0.00634
GTTATCGA	-0.23
CGGATAAA	0.0971
GGGGTTTA	-0.197
GTATGACA	-0.0499
CGCCCTAA	-0.0229

Sample 4 — technique: RNA Bind-n-Seq; form: RNA; medium: in vitro; tested at: 365 nM; relative to: no-protein control; direction: higher = stronger binding
Target: RNA binding protein fox-1 homolog 2, RRM domain, GST-SBP tag (RBFOX2, Homo sapiens, UniProt O43251-10, residues 100-194)
Notes: natural RNA segment, single round, ends assumed
Residues (chain): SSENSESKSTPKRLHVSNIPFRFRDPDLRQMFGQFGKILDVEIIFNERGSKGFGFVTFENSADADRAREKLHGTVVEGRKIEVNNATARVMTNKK
Strand	RBNS enrichment (R)
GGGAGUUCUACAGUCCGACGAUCAUCAGAGAAAGAUGCUGCAUUUUAUAAUCAAAGCCCAAACUCCUUUCUUAUCCUGACCUGACCAUACUAAUAAAUAUAAUUUAUAAGCAUUGCCAUUGGAGGCUCAAUUGUGGAAUUCUCGGGUGCCAA	0.598
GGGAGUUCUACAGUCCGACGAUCAAGACUUAAGCCUUUUUUUAAGUAAUUAAUACUUAAAAAAAAAGAUCCUGGCAUCUAUUUAUGCAACUAAAUACUUUUCAGAAAUGGUAUAUAAAAGGCUACAGUUUAAUUGGAAUUCUCGGGUGCCAA	0.778
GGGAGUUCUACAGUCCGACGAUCGAAAUGUUGACACUCAGUGAUGUGCUGUGCAUCUUGAGGUCAGCAGGCACUAACCUGGCACCUUUUACUCCAGCUGGUAGAGCUAGAGCUAAUGUGUACAGGUGUCCUGGUGGAAUUCUCGGGUGCCAA	0.513
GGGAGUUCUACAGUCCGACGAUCUCUUCCAUAAGAGUUCCCAAGCUCUGUCCACUGUUUGGCUAUGGGUGUCUCUGUCUGAGUUAGCUGCUGGGUGGAGCCUCACAUGUUCCUAUCUGUUACCAUAACAGAGUUGGAAUUCUCGGGUGCCAA	0.262
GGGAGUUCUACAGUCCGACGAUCGAUUUUAAGCAUUUUGUAAAUGUAUAAACUCACCUCUGGUAACAGUGGCCCAGACGCUGCUUUGUGCUAAAAGCAUGGGAAAUGUAAAGGCAGUCUUUCUCUGGGAAAUGUGGAAUUCUCGGGUGCCAA	9.53
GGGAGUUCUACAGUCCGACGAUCUCAGUAAUUUGUUGAAGAGUUAACAAGAAAAGGUCUUUCUAGAUUGUGUCUAAGAUGAAAUAAAAUGUAACUUUUGCUGCAGUGGUAUGUUUCUUUUGGAGUACAACAUGUGGAAUUCUCGGGUGCCAA	0.417
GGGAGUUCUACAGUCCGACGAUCCAAUCAGGGGUCACUUUUAUGAACAGCAUGCAGAAAAAUAGAUCUUCGGGAAUGUUUAAGAUCGAUCAGUAAAUAACUUCCCAGAAGACCACCCUAUGUCUAUUAAGCCUUGGAAUUCUCGGGUGCCAA	26.4
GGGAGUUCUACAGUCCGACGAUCCUAUUAAAAUUGCCAUUUUAUUAAACAUUUUCAUGCACAGUAGAUUCAAGUUGUGUCUGAAAAUAUCUCUUGUGCUUUUUUGAUUUUGCUGACUUUAAAAGGAUUAAUCUUGGAAUUCUCGGGUGCCAA	0.634
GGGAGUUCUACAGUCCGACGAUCCUCCCAGUCUCAAAUUGGGCUGGGUAUGGCGGUGUAUAUGCAUGGGAAGCGUCUUGGGGAGGGUGGUAGAAGCACAAAAGAAUCACAGAAUUAUUUUCUAAGCAAAAUAAUGGAAUUCUCGGGUGCCAA	33.5
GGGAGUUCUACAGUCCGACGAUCUUUAAUGUUGCUUAGCAUAAAAAAUACUUUCUUACAGUAAUCUUCUUUAAAUUGGGUAUAUGAAAACAUUACCAACUCUUGUUUUUCUAUAAAGAAAUACAGUUAAUAACUGGAAUUCUCGGGUGCCAA	0.857
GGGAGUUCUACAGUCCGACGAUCUGAACAUCUCCUUUCUCUUCUUGCUUCAAUUGCUUACCCACUGCCUGCCCAGACUUUCUAUCCAGCCUCACUGAGCUGCCCACUACUGGAAGGGAACUGGGCCUCGGUGGUGGAAUUCUCGGGUGCCAA	0.818
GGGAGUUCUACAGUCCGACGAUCGGAGCCCUUUCCUUUGAGAAUACAAGCAUGUCUCUGAGGCAUCCUCAGACCUGGAGUGCUCCCCAACCCCCACCUAUCAAAGCUGCUUUCAAGGUCAGGGUCAGCCCCAGUGGAAUUCUCGGGUGCCAA	2.99

Some of these lines once more (sample 1):
Modification	mean fluorescence intensity [a.u.]
2'F-ANA at 2 6 7 8 10 14 15	86.1
2'F-ANA at 3 6 8 10 11 12 15	400
2'F-ANA at 1 2 4 8 9 10 12 13 14 15	49.3
2'F-ANA at 1 2 3 6 10 11 13	120
2'F-ANA at 1 5 9 11 12 13 14	45.8
2'F-ANA at 2 3 5 10 11 15	53.3
